Measured values from different studies.
A part holds a random share of what one study measured. Substitutions count along the parent as printed.

Study 1
Target: CCNB3, cyclin fold, Cln2 fusion (human)
Method: yeast growth competition, sequencing
Matrix: yeast
Notes: weak parent motif
Baseline: not given
Reading: higher = stronger binding
Starting sequence: E2F8 docking peptide (human); FVPQRKLEVSTED; partner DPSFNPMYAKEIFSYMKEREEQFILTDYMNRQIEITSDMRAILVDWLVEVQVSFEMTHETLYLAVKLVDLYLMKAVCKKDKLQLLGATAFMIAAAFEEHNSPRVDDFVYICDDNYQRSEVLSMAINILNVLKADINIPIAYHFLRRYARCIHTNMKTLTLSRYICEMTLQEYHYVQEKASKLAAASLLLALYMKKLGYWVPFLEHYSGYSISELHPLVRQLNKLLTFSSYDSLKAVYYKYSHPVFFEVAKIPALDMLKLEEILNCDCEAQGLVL
| Substitution | normalised enrichment score |
| --- | --- |
| FVPQRKLEFSTED [V9F] | 0.229 |
| FVPQRKLEVSTAD [E12A] | 0.0495 |
| FAPQRKLEVSTED [V2A] | 0.041 |
| FVPQRKAEVSTED [L7A] | 0.254 |
| FVPQAKAEVSTED [R5A L7A] | -0.251 |
| FVPQRKLAVSTED [E8A] | 0.195 |
| FVPQRKLEVSAED [T11A] | 0.0986 |
| FVPQRKLELSTED [V9L] | -0.31 |
| FVPQKKLELSTED [R5K V9L] | 0.00832 |
| FVPQAKLEVSTED [R5A] | 0.136 |
| FVPQRALEVSTED [K6A] | 0.367 |

Study 2
Target: ABI1, truncated, D143A, DHFR fusion (Arabidopsis thaliana)
Method: DHFR PCA, deep sequencing
Matrix: yeast
Notes: methotrexate growth selection, single substitutions
With: (+)-ABA 58 µM
Baseline: wild-type fitted maximum
Reading: higher = stronger binding
Starting sequence: PYL1, truncated, DHFR fusion (Arabidopsis thaliana); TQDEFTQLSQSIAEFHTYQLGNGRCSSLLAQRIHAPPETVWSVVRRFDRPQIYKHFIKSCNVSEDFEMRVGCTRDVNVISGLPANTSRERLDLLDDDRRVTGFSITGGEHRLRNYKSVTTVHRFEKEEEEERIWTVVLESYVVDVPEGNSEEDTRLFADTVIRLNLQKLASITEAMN; partner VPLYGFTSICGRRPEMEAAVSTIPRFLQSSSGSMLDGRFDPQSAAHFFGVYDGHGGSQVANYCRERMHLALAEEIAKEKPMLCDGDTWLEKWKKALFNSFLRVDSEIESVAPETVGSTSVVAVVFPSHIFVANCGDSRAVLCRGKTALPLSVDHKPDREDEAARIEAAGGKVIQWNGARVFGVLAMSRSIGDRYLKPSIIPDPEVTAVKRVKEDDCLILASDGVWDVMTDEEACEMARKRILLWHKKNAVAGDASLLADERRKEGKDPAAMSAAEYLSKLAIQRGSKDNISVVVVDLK
| Substitution | relative binding score [%] |
| --- | --- |
| G107P | 6.61 |
| R24S | 83.7 |
| G148L | 47.9 |
| V62D | 19.2 |
| K126C | 96.6 |
| E14H | 63.1 |
| T106I | 106 |
| Y53T | 9 |
| T135Y | -11.6 |
| H110I | 0.808 |
| R74H | -11.7 |
| E64V | 79.1 |
| D65A | 79.2 |
| A84R | -3.22 |
| D48V | -3.59 |
| Q51H | 82.6 |
| M176V | 81.2 |
| S59L | 50.4 |
| T101F | 99.2 |
| E4C | 83.6 |
| R123M | 81.1 |
| Q10I | 69.9 |
| L138V | 66.2 |
| S171C | 81.6 |
| V143R | 3.31 |

Study 3
Target: Histone acetyltransferase KAT6A, both winged helices, GST fusion (KAT6A, Homo sapiens, UniProt Q92794, residues 1-181)
Method: protein binding microarray
Form: double-stranded DNA, one strand shown
Matrix: in vitro
Tested at: not given
Notes: 8-mer, flanks averaged, mean of 2 arrays, mostly near background
Baseline: not given
Reading: higher = stronger binding
Target sequence (chain): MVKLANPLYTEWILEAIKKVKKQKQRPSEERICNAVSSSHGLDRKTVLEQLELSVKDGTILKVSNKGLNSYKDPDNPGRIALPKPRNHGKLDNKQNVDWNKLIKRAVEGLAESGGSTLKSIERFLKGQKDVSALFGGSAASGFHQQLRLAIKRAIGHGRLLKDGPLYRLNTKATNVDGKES
| Sequence | E-score |
| --- | --- |
| CTTCAATA | -0.207 |
| CTATCACC | -0.0121 |
| AAGACTCG | 0.0375 |
| CCAGATAA | -0.115 |
| TTCACGAA | 0.0559 |
| CATCTTCG | 0.0179 |
| ACCTAAGC | -0.0814 |
| AGCTGGCC | -0.0177 |
| AAAGACCT | -0.0851 |
| GAAGTAGA | -0.195 |
| TAGTCCAA | -0.17 |
| AAGCTTAA | -0.0224 |
| TCACGTGA | 0.0585 |
| CCCCCGGA | 0.12 |
| AGGAATAT | -0.0796 |
| GTCTCCTA | -0.161 |
| GGTTAAGA | 0.0466 |
| CAGCAGAA | -0.0151 |
| CAAAATCC | -0.127 |
| ACACTCCA | -0.096 |
| CGCGGTCA | 0.279 |
| ACCTCACG | -0.0167 |

Study 4
Target: Interferon regulatory factor 5, full length, phosphomimetic (IRF5, Homo sapiens, UniProt Q13568-2, residues 1-514, S451D/S453D/S456D/S462D)
Method: protein-binding microarray
Form: double-stranded DNA, one strand shown
Matrix: in vitro
Tested at: 940 nM top
Notes: 60-bp whole probe
With: salmon DNA 0.4 mg/ml
Baseline: random background probes
Reading: higher = stronger binding
Shared flanks, not repeated: GCCTAGCAC … GTCTTGATTCGCTTGACGCTGCTG
| Sequence | fitted relative affinity [z-score] |
| --- | --- |
| TATGTTGTCCAGGCTGGTCTCGTGCTA | -0.422 |
| GACGATATTGGGTATCGAGACGTGCTA | 1.05 |
| AACGGTCTCGGTCTCGGGACGTGCTAG | 4.23 |
| TTAGGAATGGGTTTCGGTTAGTGCTAG | 6.98 |
| TTAGGTCACGGACTGGGTTAGTGCTAG | -0.468 |
| TTAGATCTCAGCCTGGATTAGTGCTAG | -0.229 |
| GACGATATCGGGACTGTAGACGTGCTA | -0.13 |
| CACAGTTTGTAAATCTTTTTGTGCTAG | 0.0436 |
| GTGGGGGGTGTGAGTGGGTGGTGCTAG | 3.45 |
| GACCGTCTCGGTCTCGGGACGTGCTAG | 3.52 |
| TTCACTTTCTTTAACTCATTGTGCTAG | 2.89 |
| TGAGGTCTCCTTTTCCTTTAGTGCTAG | 0.394 |
| CTGTTTTTCTCACCACATTTTGTGCTA | 2.05 |
| TTAGGTTTAGGTTTCGGTTAGTGCTAG | 9.09 |
| GACGGTCTGGACTATCGGGACGTGCTA | -0.442 |
| TTAGCTTTCGGTTTCGGTTAGTGCTAG | 11.6 |
| GAGGGTCTCCTTTTCCTGACGTGCTAG | 0.315 |
| TTTGGACTGCTACTGCTTTAGTGCTAG | -0.545 |
| GACGGTTTCCTACAGCTGACGTGCTAG | 0.63 |

Excerpt of the above (study 2):
| Substitution | relative binding score [%] |
| --- | --- |
| H110I | 0.808 |
| M176V | 81.2 |
| R74H | -11.7 |
| G107P | 6.61 |
| A84R | -3.22 |
| T101F | 99.2 |
| K126C | 96.6 |
| E4C | 83.6 |
